Published values of several laboratories.
Compare with care: the assays were run in different laboratories. “And” joins repeats or separate records; there may be more than shown. Numbers after ± are the reported error.

CC(C)(C)c1cc(-n2nc3ccccc3n2)c(O)c(C(C)(C)C)c1 — daily dermal uptake, percentile (exposure assessment; human, age 21-60 years; concentration not given, spray sunscreen, 95th percentile): 16.5 ng/kg body weight/day
CC(C)C(=O)OC[C@H]1O[C@@H](n2ccc(NO)nc2=O)[C@H](O)[C@@H]1O — autosampler stability (rat amniotic fluid dialysate; 5 ng/mL, 6 h, 10 °C, low QC concentration, added: NHC 25 ng/mL): 96 ± 2.68%
Nc1ncnc2c1ncn2[C@@H]1O[C@@H]2COP(=O)([S-])O[C@@H]3[C@H](O)[C@@H](COP([O-])(=S)O[C@H]2[C@H]1O)O[C@H]3n1cnc2c(N)ncnc21.[Na+].[Na+] (stereo partly shown) — triglycerides (non-tumor-bearing mice, serum; intravenous, 1 mg/kg, toxicity study): 1.33 ± 0.13 mmol/L
COc1cc2c(Oc3ccc4[nH]c(C)cc4c3F)ccnc2cc1OCC1(N)CC1 — grade 1 or 2 Appendicitis (paediatric recurrent refractory sarcoma; 8 mg/kg): 0%
Cn1c(-c2ccc(C(N)=O)cc2F)nnc1C(C)(C)Oc1c(F)cc(Cl)cc1F — nervous system disorder TEAE (human; oral, 6 mg, single ascending dose): 0%
C[C@]1(CO)Cc2ncn(-c3ccc(C#N)c(Cl)c3)c2C(=O)O1 — subjects with drug-related orthostatic hypotension (human; 20 mg single dose): 0%
O=C1Nc2cc3[nH]nc(-c4ccncc4)c3cc2CN1Cc1ccccc1 — patients with blurred vision (CTCAE v4.03; advanced solid tumour patients; intravenous, 3.6 mg/kg): 0%
CC[C@H](C)[C@H](NC(=O)[C@H](Cc1ccccc1)NC(=O)[C@H](CCC(=O)O)NC(=O)[C@H](CCCNC(=N)N)NC(=O)[C@H](C)NC(=O)[C@H](C)NC(=O)[C@H](CCC(N)=O)NC(=O)[C@H](CCC(=O)O)NC(=O)[C@H](CCC(=O)O)NC(=O)[C@H](CC(C)C)NC(=O)[C@H](Cc1ccc(O)cc1)NC(=O)[C@H](CO)NC(=O)[C@H](CO)NC(=O)[C@@H](NC(=O)[C@H](CC(=O)O)NC(=O)[C@H](CO)NC(=O)[C@@H](NC(=O)[C@H](Cc1ccccc1)NC(=O)[C@@H](NC(=O)CNC(=O)[C@H](CCC(=O)O)NC(=O)[C@H](C)NC(=O)CCc1cnc[nH]1)[C@@H](C)O)[C@@H](C)O)C(C)C)C(=O)N[C@@H](C)C(=O)N[C@@H](Cc1c[nH]c2ccccc12)C(=O)N[C@@H](CC(C)C)C(=O)N[C@H](C(=O)N[C@@H](CCCNC(=N)N)C(=O)NCC(=O)N[C@@H](CCCNC(=N)N)C(=O)N[C@@H](CCCCNC(=O)COCCOCCNC(=O)COCCOCCNC(=O)CC[C@H](NC(=O)CCCCCCCCCCCCCCCCC(=O)O)C(=O)O)C(=O)NCC(=O)NCC(=O)N[C@@H](CO)C(=O)N[C@@H](CCCCNC(=O)[C@H](CCCCNc1c(NCCCCCN(O)C(=O)CCC(=O)NCCCCCN(O)C(=O)CCC(=O)NCCCCCN(O)C(C)=O)c(=O)c1=O)Nc1c(NCCCCCN(O)C(=O)CCC(=O)NCCCCCN(O)C(=O)CCC(=O)NCCCCCN(O)C(C)=O)c(=O)c1=O)C(=O)O)C(C)C [zirconium-89 labelled] — tissue uptake (ex vivo gamma counting; Sprague-Dawley rat, male, bone marrow; intravenous, 1 nmol, 24 h): 0.739 %ID/g and 0.638 %ID/g and 0.628 %ID/g and 0.757 %ID/g and 0.77 %ID/g
C[C@@H]1OC(=O)NN=C1c1ccc(-c2ccc(F)cc2)c(C(F)(F)F)c1 — patients with adverse event (phase I trial, measured: muscle spasms worst grade 1; human patients; 10 mg loading then 0.5 mg daily): 100%
CCc1ccc(CC/C=C/c2ccc3c(c2)C(=O)CC3)cc1 — Phosphorus (Sprague-Dawley rat, female; oral, 450 mg/kg/day, 14 days): 2.44 mM
CN1CC[C@@H](c2c(O)cc(O)c3c(=O)cc(-c4ccc(C(F)(F)F)cc4Cl)oc23)[C@@H]1CO — patients with adverse event (measured: respiratory failure; B-cell malignancies; oral, 200 mg, grade 3 to 4, intermittent dosing): 0%
COc1ccc(-c2c(-c3ccc(C#N)c(F)c3)nc(N3CCC(N)CC3)n(C)c2=O)cc1F — treatment-related adverse event incidence (measured: Anemia; relapsed/refractory marginal zone lymphoma patients; oral, 60 mg, any grade, dose expansion): 0%
O=S(=O)(Nc1ccccc1)c1ccc(NC(=S)Nc2ccccc2)cc1 — relative organ weight (mouse, male, lung; oral, 80 mg/kg daily, 14 days; baseline: body weight): 0.74%
